Assay results gathered from unrelated publications.
Each line is one published result; not all experiments were run side by side. Numbers after ± are the reported error.

Structure (SMILES) = COc1ccc(-c2nnc(COc3cc(-c4nc5ccccc5s4)ccc3OC)o2)cc1OC; test = hind limb tonic extension; test system = albino mouse, MES-induced seizure; setting = ip, 0.5 h; endpoint = minimal effective dose; result = 30 mg/kg
Structure (SMILES) = COC1C=CC=C(C)C(=O)NC2=CC(=O)C(NCCN(C)C)=C(CC(C)CC(OC)C(O)C(C)C=C(C)C1OC(N)=O)C2=O (centres unmarked); test = GSEA, refers to: MYC, E2F, NOTCH; test system = mouse, Rh30 xenograft; setting = dose not given; endpoint = pathway activity; result = inhibited
Structure (SMILES) = CC(=O)C1=C(C)NC(=O)NC1c1ccc(C)cc1 (centres unmarked); test = FRAP; how to read = baseline: gallic acid; endpoint = antioxidant potency ratio; result = ~2.9 fold
Structure (SMILES) = O=C([O-])CN1CCN(CC(=O)[O-])CCN(CC(=O)NC[C@H]2CC[C@H](C(=O)N[C@H](Cc3cnc4ccccc4c3)C(=O)NCCCC[C@H](NC(=O)N[C@@H](CCC(=O)O)C(=O)O)C(=O)O)CC2)CCN(CC(=O)[O-])CC1.[64Cu+2]; test = refers to: prostate cancer; test system = prostate cancer patients, biopsy cores; setting = cut-off 66 CPM; endpoint = specificity; result = 93.7%
Structure (SMILES) = O=C(O)C1OC(Oc2cccc(-c3nc(N4CCOCC4)c4oc5ncccc5c4n3)c2)C(O)C(O)C1O (centres unmarked); test = glucuronide formation; test system = human liver microsomes; endpoint = Vmax; result = 41.2 ± 1.74 pmol/min/mg
Structure (SMILES) = CN1CCCNC(=O)c2cccc(c2)C(=O)NCCCN(C)CCCNc2cccc3c2C(=O)c2cccc(c2C3=O)NCCC1; test system = SAS xenograft, KSN/Slc nude mice; setting = intraperitoneal, 3 µmol/kg every 2 days ×5; endpoint = tumour volume; result = decreased
Structure (SMILES) = O=c1[nH]c2ccccc2n1CCCCCN1CCN(c2ccc(F)cc2)CC1; test = tail immersion test; test system = mouse; setting = subcutaneous, 5 mg/kg; endpoint = duration of antinociceptive effect; result = > 70 min
Structure (SMILES) = CC(C)=CCCC(C)=CCc1cc(-c2coc3cc(OC4OC(C(=O)O)C(O)C(O)C4O)ccc3c2=O)ccc1O (centres unmarked); test = glucuronidation, substrate; test system = rat liver microsomes; endpoint = Vmax; result = 2560 ± 334 pmol/min/mg
Structure (SMILES) = CCCCCCCOC(=O)Cc1c(C)n(C(=O)c2ccc(Cl)cc2)c2ccc(OC)cc12; test = hot plate test; test system = BALB/c mice; setting = 50 mg/kg, 30 min; endpoint = latency of nociceptive response; result = 15.2 ± 1.49 s
Structure (SMILES) = CC[C@H]1[C@@H](O)[C@@H]2[C@H](CC[C@]3(C)[C@@H]([C@H](C)CCOS(=O)(=O)[O-])CC[C@@H]23)[C@@]2(C)CC[C@@H](O)C[C@@H]12.[Na+]; test system = ob/ob NASH mouse model, plasma; setting = oral, 10 mg/kg once daily, before treatment, baseline of 8 week study; endpoint = ALT activity; result = 498 ± 27.3 U/L
Structure (SMILES) = Cc1ncc2c(n1)CN(C(=O)Nc1nc(-c3cccs3)ccc1N)C2; test = immunofluorescence; test system = wild type mouse, hippocampal CA1; setting = dose not given, 14 days, daily; endpoint = SV2A and PSD95 puncta; result = no effect
Structure (SMILES) = CC(C)(O)c1ccc(N2Cc3c(ccnc3-c3ccc(F)cc3OCC(F)(F)F)C2=O)cc1; test = refers to: glucosylceramide; test system = mouse, plasma; setting = 6 h; how to read = significant decrease; endpoint = minimal effective dose; result = 1 mg/kg
Structure (SMILES) = COc1c2c(cc3oc(C)cc(=O)c13)O[C@H](C(C)(C)O[C@@H]1O[C@H](CO)[C@@H](O)[C@H](O)[C@H]1O)C2; test = analgesia; test system = mouse; setting = oral, 2 mg/kg, 1 h; endpoint = hot plate latency; result = 10.9 ± 1.47 s
Structure (SMILES) = O=[N+]([O-])c1cccc(S(=O)(=O)NC[C@@H](O)[C@@H]2CCc3cc(F)ccc3O2)c1; test system = rat, cotton pellet granuloma; setting = oral, 100 mg/kg, 8 days; endpoint = dry granuloma weight; result = 78.4 ± 2.04 mg
Structure (SMILES) = Cc1cc(O)c(C=O)c2c1C(=O)Oc1c(CO)c(O)c3c(c1O2)C(O)OC3=O (centres unmarked); test system = rat, male, streptozotocin-induced diabetes; setting = 10 mg/kg, 0 weeks; endpoint = fasting plasma glucose; result = 326 ± 4.73 mg/dL
Structure (SMILES) = C[C@H](CC(=O)C[C@@H](C)[C@H]1C[C@H](O)[C@@]2(C)C3=C(C(=O)C[C@]12C)[C@@]1(C)CCC(=O)C(C)(C)[C@@H]1C[C@@H]3O)C(=O)O; test = oral glucose tolerance test; test system = mouse, STZ-induced type 1 diabetes; setting = oral, dose not given, 1 h; how to read = baseline: control; endpoint = blood glucose; result = 75 to 85%
Structure (SMILES) = CC(=O)N[C@@H](CC(N)=O)C(=O)NCC(=O)N[C@@H](C)C(=O)N[C@@H](C)C(N)=O; test = 1H NMR; test system = sodium phosphate buffer 50 mM; setting = pH 7.4, 37 °C; endpoint = rate constant succinimide to β-Asp; result = 0.714 h⁻¹
Structure (SMILES) = C[C@@H](O)[C@@H]1NC(=O)[C@H](CCCCN)NC(=O)[C@@H](Cc2ccc(NC(N)=O)cc2)NC(=O)[C@H](Cc2ccc(NC(=O)[C@@H]3CC(=O)NC(=O)N3)cc2)NC(=O)[C@H](NC(=O)[C@H](Cc2ccc(Cl)cc2)NC(=O)CN2CCN(CC(=O)O)CCN(CC(=O)O)CCN(CC(=O)O)CC2)CSSC[C@@H](C(=O)N[C@H](Cc2ccc(O)cc2)C(N)=O)NC1=O [gallium-68 labelled]; test = PET/CT; test system = human neuroendocrine tumour patients, lung lesions; setting = 60 min; endpoint = SUVmean; result = 7.4
Structure (SMILES) = COC(=O)N1c2ccc3c(nc(Cc4ccccc4)n3[C@@H]3CCC[C@@H](C(=O)O)C3)c2CC[C@@H]1C; test system = mice, breast cancer PDX; setting = oral, 50 mg/kg, 45 days, TNBC, TGI above 60%; endpoint = responding models; result = 38%
Structure (SMILES) = CC=C1C(OC2OC(CO)C(O)C(O)C2O)OC=C(C(=O)OC)C1CC(=O)OCC1OC(OCCc2ccc(O)cc2)C(O)C(O)C1O (centres unmarked); test = refers to: butyric acid; test system = tumour-bearing mice, faeces; setting = oral, 109.2 mg/kg daily, 10 days; how to read = baseline: untreated tumour group; endpoint = faecal short-chain fatty acid increase; result = 38.3%
Structure (SMILES) = CCCCCCCCCCCCCCCC(=O)NCCCC[C@H](N)C(=O)N[C@@H](CC(=O)O)C(=O)N[C@H](C(=O)N[C@@H](Cc1c[nH]cn1)C(=O)N[C@@H](Cc1ccccc1)C(=O)N[C@@H](CCCNC(=N)N)C(=O)N[C@H](C(=O)N[C@@H](Cc1ccccc1)C(=O)N[C@@H](CCCNC(=N)N)C(=O)N[C@@H](CO)C(=O)N[C@@H](Cc1c[nH]cn1)C(=O)N[C@@H](CO)C(=O)N[C@@H](CC(=O)O)C(=O)N[C@@H](Cc1ccc(O)cc1)C(=O)N[C@@H](CCCNC(=N)N)C(=O)N[C@@H](CCCNC(=N)N)C(=O)N[C@H](C(=O)O)[C@@H](C)CC)[C@@H](C)O)[C@@H](C)O; test system = C57BL/6J mouse, MCD diet; setting = intraperitoneal, 1.2 nmol/g, 3 weeks, 3 times weekly; endpoint = blood glucose; result = 94.7 ± 5.8 mg/dL
Structure (SMILES) = C=C(c1cc(F)c(C(=O)O)c(F)c1)c1cc2c(cc1C)C(C)(C)CCC2(C)C; test = RNA sequencing, refers to: Rbp1; test system = rat, brain; setting = dose not given, 24 h; how to read = baseline: vehicle; endpoint = log2 fold change; result = 0.62
Structure (SMILES) = CC1(C)C(=CC=C2CCCC(C=CC3=[N+](CCCCS(=O)(=O)[O-])c4ccc(S(=O)(=O)O)cc4C3(C)C)=C2Oc2ccc(S(=O)(=O)O)cc2)N(CCCCCC(=O)NCCCC[C@H](NC(=O)[C@@H](CCC(=O)O)NC(=O)[C@@H](CCC(=O)O)NC(=O)[C@@H](CCC(=O)O)NC(=O)CCCCCNC(=O)C2CCC(CNC(=O)CC[C@H](NC(=O)N[C@@H](CCC(=O)O)C(=O)O)C(=O)O)CC2)C(N)=O)c2ccc(S(=O)(=O)O)cc21 (some centres unmarked); test = fluorescence molecular tomography; test system = mouse, PC-3 flu tumour xenograft, PC-3 flu tumour; setting = iv, 1 nmol, 4 h; endpoint = probe amount in tumour; result = 7.5 ± 1.8 pmol
Structure (SMILES) = COc1ccc(C2CC(c3ccc(C)cc3)=Nc3ccccc3S2)cc1OC (centres unmarked); test system = rat, normal, overnight fasted; setting = oral, 10 mg/kg, 60 min, oral glucose tolerance test, added: glucose 3 g/kg oral; endpoint = blood glucose; result = 113 ± 5.03 mg/dL
Structure (SMILES) = C[C@H](NC(=O)COC(=O)[C@H](C)NC(=O)CO)C(=O)O; test system = water; setting = pH 5, 37 °C; endpoint = depolymerization rate constant; result = 0.055 h⁻¹
Structure (SMILES) = C=C(c1ccc(C(=O)O)c(F)c1)c1cc2c(cc1C)C(C)(C)C=CC2(C)C; test = RNA sequencing, refers to: Ccl6 mRNA; test system = rat, brain; setting = dose not given, 24 h, single dose; how to read = baseline: vehicle; endpoint = log2 fold change; result = -1.68

For quick reference, copied from above:
Structure (SMILES) = O=C(O)C1OC(Oc2cccc(-c3nc(N4CCOCC4)c4oc5ncccc5c4n3)c2)C(O)C(O)C1O (centres unmarked); test = glucuronide formation; test system = human liver microsomes; endpoint = Vmax; result = 41.2 ± 1.74 pmol/min/mg
Structure (SMILES) = CN1CCCNC(=O)c2cccc(c2)C(=O)NCCCN(C)CCCNc2cccc3c2C(=O)c2cccc(c2C3=O)NCCC1; test system = SAS xenograft, KSN/Slc nude mice; setting = intraperitoneal, 3 µmol/kg every 2 days ×5; endpoint = tumour volume; result = decreased
